Assay results pooled from the literature.
Parts stem from different laboratories: compare values within a part only.

Series 1
Target: Histone acetyltransferase KAT6A, winged helix 1, GST fusion (KAT6A, Homo sapiens, UniProt Q92794, residues 1-85)
Technique: protein binding microarray
Molecule type: double-stranded DNA, one strand shown
Matrix: in vitro
Tested at: not given
Setting: 8-mer, flanks averaged, mean of 2 arrays, mostly near background
Relative to: not given
Direction: higher = stronger binding
Quantity: E-score
Target sequence (chain): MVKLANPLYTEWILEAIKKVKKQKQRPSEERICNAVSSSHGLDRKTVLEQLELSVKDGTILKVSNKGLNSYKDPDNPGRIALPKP
Oligonucleotide = AGCTTATG; result = -0.164
Oligonucleotide = ACGAAGCC; result = 0.0502
Oligonucleotide = GACGGTGC; result = 0.277
Oligonucleotide = CAAAACAC; result = -0.0961
Oligonucleotide = GAATAAGA; result = -0.227
Oligonucleotide = CACCTGAG; result = -0.192
Oligonucleotide = AGGTTTTG; result = -0.0397
Oligonucleotide = GACCTTGA; result = -0.138
Oligonucleotide = ACTATTAG; result = -0.201
Oligonucleotide = ACACTTCC; result = -0.0224
Oligonucleotide = ACATAAAA; result = -0.105
Oligonucleotide = CCCTCAAC; result = -0.116
Oligonucleotide = GGGGCCTA; result = 0.0611
Oligonucleotide = TACGAAGA; result = 0.0145
Oligonucleotide = CACACTCG; result = -0.0135
Oligonucleotide = ATTTCTGG; result = -0.343
Oligonucleotide = TGAGCACA; result = -0.267
Oligonucleotide = CTCAACCC; result = -0.149
Oligonucleotide = GACTAATA; result = -0.132
Oligonucleotide = AGGTAGGA; result = -0.148
Oligonucleotide = AGGTCCAC; result = -0.138
Oligonucleotide = AGATAGTC; result = -0.0613
Oligonucleotide = CTGTCCAA; result = -0.126
Oligonucleotide = GCCATAAA; result = -0.0922
Oligonucleotide = AGATCACA; result = -0.0933

Series 2
Target: Protein C-ets-1 (ETS1, Homo sapiens, UniProt P14921, residues 1-441, full length assumed)
Technique: protein-binding microarray
Molecule type: double-stranded DNA, one strand shown
Matrix: in vitro
Tested at: not given
Setting: k-mer, scored over probes, only values ≥0.25
Direction: higher = stronger binding
Quantity: E-score
Construct (chain): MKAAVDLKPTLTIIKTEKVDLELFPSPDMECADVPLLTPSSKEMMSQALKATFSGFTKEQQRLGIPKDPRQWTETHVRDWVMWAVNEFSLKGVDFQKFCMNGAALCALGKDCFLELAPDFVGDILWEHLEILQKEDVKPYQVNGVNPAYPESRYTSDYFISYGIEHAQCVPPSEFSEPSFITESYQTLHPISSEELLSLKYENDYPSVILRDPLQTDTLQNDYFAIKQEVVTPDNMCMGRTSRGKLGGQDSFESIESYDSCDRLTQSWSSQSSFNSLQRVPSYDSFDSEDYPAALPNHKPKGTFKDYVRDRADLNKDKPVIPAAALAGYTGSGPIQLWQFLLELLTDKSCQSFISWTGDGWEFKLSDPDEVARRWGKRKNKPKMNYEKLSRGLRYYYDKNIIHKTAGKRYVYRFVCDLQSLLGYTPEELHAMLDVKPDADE
Oligonucleotide = ACTTCCCT; result = 0.389
Oligonucleotide = CAAGGATG; result = 0.294
Oligonucleotide = GGAGGGGA; result = 0.314
Oligonucleotide = ATCGGAAA; result = 0.406
Oligonucleotide = GTGGCGGA; result = 0.385
Oligonucleotide = ATACGGAA; result = 0.39
Oligonucleotide = GGGCCGGA; result = 0.451
Oligonucleotide = GGAACCGA; result = 0.309
Oligonucleotide = ATCCGGAG; result = 0.433
Oligonucleotide = GCATCCCC; result = 0.259
Oligonucleotide = ATCATCCG; result = 0.353
Oligonucleotide = ACGGATGA; result = 0.29
Oligonucleotide = AGCGGATG; result = 0.466
Oligonucleotide = GCACCGGA; result = 0.458
Oligonucleotide = GGACATCC; result = 0.428
Oligonucleotide = GGAAGCAC; result = 0.396
Oligonucleotide = CAGATCCG; result = 0.283
Oligonucleotide = GGGATGTA; result = 0.36
Oligonucleotide = CCGGACAA; result = 0.317
Oligonucleotide = GGAGGAAA; result = 0.367
Oligonucleotide = TAACCGGA; result = 0.466
Oligonucleotide = ACAACGGA; result = 0.323
Oligonucleotide = GGATGTTA; result = 0.414
Oligonucleotide = AGGATGCG; result = 0.413
Oligonucleotide = GCGGACGC; result = 0.39

Series 3
Target: Interferon regulatory factor 7, full length, phosphomimetic (IRF7, Homo sapiens, UniProt Q92985, residues 1-503, S101K/S471D/S472D/S475D/S476D/S477D/S483D/S484D/S487D)
Technique: protein-binding microarray
Molecule type: double-stranded DNA, one strand shown
Matrix: in vitro
Tested at: 250 nM
Setting: 60-bp whole probe
With: salmon DNA 0.4 mg/ml
Relative to: random background probes
Direction: higher = stronger binding
Quantity: log fluorescence
Shared flanks, not repeated: GCCTAGCAC … GTCTTGATTCGCTTGACGCTGCTG
Construct (chain): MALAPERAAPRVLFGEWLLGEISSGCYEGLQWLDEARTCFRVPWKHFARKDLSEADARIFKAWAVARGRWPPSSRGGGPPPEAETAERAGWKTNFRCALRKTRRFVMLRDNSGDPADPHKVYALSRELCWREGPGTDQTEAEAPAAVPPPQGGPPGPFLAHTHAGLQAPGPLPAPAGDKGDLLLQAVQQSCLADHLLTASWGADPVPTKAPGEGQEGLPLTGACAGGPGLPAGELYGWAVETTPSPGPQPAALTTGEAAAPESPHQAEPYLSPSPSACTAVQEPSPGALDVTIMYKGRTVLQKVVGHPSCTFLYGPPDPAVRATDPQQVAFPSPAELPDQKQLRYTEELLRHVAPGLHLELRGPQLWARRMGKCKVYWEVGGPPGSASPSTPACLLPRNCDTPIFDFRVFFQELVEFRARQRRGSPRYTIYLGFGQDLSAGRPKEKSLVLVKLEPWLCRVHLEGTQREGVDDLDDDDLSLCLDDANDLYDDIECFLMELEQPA
Oligonucleotide = TCAGGTTTCGGTATCGGTTAGTGCTAG; result = 11.6 z-score
Oligonucleotide = GACGGTATCGGGCTTCGGGACGTGCTA; result = -0.467 z-score
Oligonucleotide = TTAGGTATAGACTTTCGGTTAGTGCTA; result = 0.643 z-score
Oligonucleotide = TAAAACATCATTTTTCCCTCGTGCTAG; result = 0.133 z-score
Oligonucleotide = TGCTTCTAACAGAGGAGGTTGTGCTAG; result = 0.645 z-score
Oligonucleotide = TTGGGACTGGACTTTCGGTTAGTGCTA; result = 0.0544 z-score
Oligonucleotide = TTAGGTATCCTTCTCCTTTAGTGCTAG; result = 0.502 z-score
Oligonucleotide = GCCCTTATCCAATCAGAATTGTGCTAG; result = 0.781 z-score
Oligonucleotide = TCAGATTTCAGGAATTGAACTGTGCTA; result = -0.0798 z-score
Oligonucleotide = TTGGGTCTGGGTATTTTTCTGTGCTAG; result = -0.9 z-score
Oligonucleotide = GACGGTTGCCTTATCCTGACGTGCTAG; result = -0.334 z-score
Oligonucleotide = ATAGATCTCAGTTTCGATTAGTGCTAG; result = 8.25 z-score
Oligonucleotide = TAGGGACTCAGGTCTCCCTTGGTGCTA; result = -0.132 z-score
Oligonucleotide = GACGGTTTCGGGTTTCGGGGCGTGCTA; result = 11.2 z-score
Oligonucleotide = GGGCCTTGCATGTTTTTGACAGTGCTA; result = -0.227 z-score
Oligonucleotide = TTAGGTTTCCTTCTCCTTCAGTGCTAG; result = 2.32 z-score
Oligonucleotide = GACGGTTCCGTTTTCGGGACGTGCTAG; result = 5.16 z-score

Series 4
Target: Sal-like protein 4, full length isoform A (SALL4, Homo sapiens, UniProt Q9UJQ4, residues 1-1053)
UniProt Q9UJQ4, sequence (whole entry, looked up): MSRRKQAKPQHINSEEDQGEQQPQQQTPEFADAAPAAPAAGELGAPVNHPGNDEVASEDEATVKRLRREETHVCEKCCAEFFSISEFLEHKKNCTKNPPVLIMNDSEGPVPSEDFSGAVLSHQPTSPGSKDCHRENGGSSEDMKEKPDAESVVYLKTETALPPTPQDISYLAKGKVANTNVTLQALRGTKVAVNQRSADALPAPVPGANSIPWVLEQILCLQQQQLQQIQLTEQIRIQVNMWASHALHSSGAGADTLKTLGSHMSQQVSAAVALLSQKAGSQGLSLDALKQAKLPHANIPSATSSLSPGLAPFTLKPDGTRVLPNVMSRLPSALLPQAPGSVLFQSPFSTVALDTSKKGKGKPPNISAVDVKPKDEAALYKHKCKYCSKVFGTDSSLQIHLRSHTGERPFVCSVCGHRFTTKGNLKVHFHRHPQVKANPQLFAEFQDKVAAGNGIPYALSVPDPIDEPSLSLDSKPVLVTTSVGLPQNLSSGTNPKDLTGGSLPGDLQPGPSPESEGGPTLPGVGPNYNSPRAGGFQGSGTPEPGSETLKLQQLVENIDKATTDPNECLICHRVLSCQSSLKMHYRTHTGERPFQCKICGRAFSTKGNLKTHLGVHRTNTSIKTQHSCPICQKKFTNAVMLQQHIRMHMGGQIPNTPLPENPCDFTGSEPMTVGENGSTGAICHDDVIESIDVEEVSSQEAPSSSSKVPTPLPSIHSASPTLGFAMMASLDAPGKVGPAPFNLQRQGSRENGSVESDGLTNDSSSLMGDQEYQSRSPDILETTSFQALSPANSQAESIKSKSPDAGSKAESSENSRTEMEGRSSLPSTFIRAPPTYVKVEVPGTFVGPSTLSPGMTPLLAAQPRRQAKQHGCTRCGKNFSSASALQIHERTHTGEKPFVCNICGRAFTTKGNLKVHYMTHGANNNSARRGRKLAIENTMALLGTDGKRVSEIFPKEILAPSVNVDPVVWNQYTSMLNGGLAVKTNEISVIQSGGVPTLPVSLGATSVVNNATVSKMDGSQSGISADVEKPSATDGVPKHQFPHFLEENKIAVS
Technique: universal PBM
Molecule type: double-stranded DNA, one strand shown
Matrix: in vitro
Tested at: 600 nM
Setting: 8-mer, flanks averaged, mean of replicates
Direction: higher = stronger binding
Quantity: E-score
Oligonucleotide = ACTGCGGC; result = -0.319
Oligonucleotide = CACTATAG; result = 0.189
Oligonucleotide = GCAGTCAA; result = -0.16
Oligonucleotide = CATGAAGC; result = 0.0372
Oligonucleotide = AGAGGTAA; result = 0.133
Oligonucleotide = ACATTTCC; result = 0.0726
Oligonucleotide = CCCACGAC; result = -0.332
Oligonucleotide = AACACTCG; result = 0.00828
Oligonucleotide = CAACAGGC; result = -0.0471
Oligonucleotide = ACACCTCT; result = -0.215
Oligonucleotide = AAGGTGGG; result = -0.266
Oligonucleotide = ACCGGGAG; result = -0.22
Oligonucleotide = AACCCGGG; result = -0.302
Oligonucleotide = GAGTAAAC; result = 0.0215
Oligonucleotide = ACAGCATG; result = -0.0625
Oligonucleotide = ACCGTATG; result = 0.0916
Oligonucleotide = GCTCATGA; result = -0.0741
Oligonucleotide = CGTGGTGC; result = -0.257
Oligonucleotide = ATATTCGA; result = 0.276
Oligonucleotide = CACGTGTA; result = -0.0344
Oligonucleotide = CGGATTTC; result = -0.106
Oligonucleotide = GGCATTAA; result = 0.107
Oligonucleotide = AGTAGTCA; result = 0.00668
Oligonucleotide = ATGGCATA; result = 0.264
Oligonucleotide = CTTGGTCC; result = -0.252

Repeated from above (series 1):
Oligonucleotide = GGGGCCTA; result = 0.0611
Oligonucleotide = AGATCACA; result = -0.0933
Oligonucleotide = CACCTGAG; result = -0.192
Oligonucleotide = GACTAATA; result = -0.132
Oligonucleotide = CTCAACCC; result = -0.149
Oligonucleotide = ACATAAAA; result = -0.105
Oligonucleotide = AGGTCCAC; result = -0.138
Oligonucleotide = AGCTTATG; result = -0.164
Oligonucleotide = AGGTAGGA; result = -0.148
Oligonucleotide = CACACTCG; result = -0.0135
Oligonucleotide = CCCTCAAC; result = -0.116
Oligonucleotide = TGAGCACA; result = -0.267
Oligonucleotide = CTGTCCAA; result = -0.126
